Measurements of several laboratories.
Lines come from different studies, so protocols differ. Values joined by “and” are separate records of one study, mostly repeats; a detail may differ. ± marks the error that the study gave.

| Compound | tested on | test | system | conditions | scale | endpoint | result |
| --- | --- | --- | --- | --- | --- | --- | --- |
| CC[C@H](C)[C@H](NC(=O)[C@H](CCCCN)NC(=O)CNC(=O)[C@H](CC(C)C)NC(=O)[C@H](Cc1ccccc1)NC(=O)[C@H](CCCCN)NC(=O)[C@H](CO)NC(=O)[C@H](Cc1ccccc1)NC(=O)[C@H](Cc1c[nH]c2ccccc12)NC(=O)[C@H](CCC(N)=O)NC(=O)[C@@H](NC(=O)[C@H](Cc1ccccc1)NC(=O)CCCCCNC(=O)CN1CCN(CC(=O)O)CCN(CC(=O)O)CCN(CC(=O)O)CC1)C(C)C)C(=O)N[C@@H](CCC(=O)O)C(=O)N1CCC[C@H]1C(=O)N[C@@H](CC(=O)O)C(=O)N[C@H](C(=O)N[C@@H](CO)C(=O)N[C@@H](CCC(N)=O)C(=O)N[C@H](C(=O)N[C@@H](CCC(N)=O)C(=O)N[C@@H](CC(=O)O)C(=O)N1CCC[C@H]1C(=O)N[C@@H](CC(N)=O)C(=O)N[C@@H](CC(=O)O)C(=O)N[C@@H](CCC(N)=O)C(=O)N[C@@H](Cc1ccc(O)cc1)C(=O)N[C@@H](CCC(=O)O)C(=O)N1CCC[C@H]1C(=O)N[C@@H](Cc1ccccc1)C(=O)O)C(C)C)C(C)C [copper-64 labelled] | – | – | C57BL/6 mice, brain | added: LPS 3 mg/kg intratracheal | – | tissue uptake | 0.21 ± 0.02 %ID/g |
| CC(C)[C@H](NC(=O)[C@@H](NC(=O)[C@H](CCCNC(=N)N)NC(=O)[C@H](CCCNC(=N)N)NC(=O)[C@H](CCCNC(=N)N)NC(=O)[C@H](CCC(N)=O)NC(=O)[C@H](CCCNC(=N)N)NC(=O)[C@H](CCCNC(=N)N)NC(=O)[C@H](CCCCN)NC(=O)[C@H](CCCCN)NC(=O)[C@H](CCCNC(=N)N)NC(=O)CN)[C@@H](C)O)C(=O)N[C@H](C(=O)N[C@@H](CO)C(=O)N1CCC[C@H]1C(=O)O)[C@@H](C)O | – | – | ICR mouse, male, right kidney | intranasal, 5 mg/kg daily, 4 weeks | – | kidney weight | 0.33 ± 0.07 g |
| C=Cc1c(C)c2cc3nc(c(CC(=O)[O-])c4[n-]c(cc5nc(cc1[n-]2)C(C)=C5CC)c(C)c4C(=O)[O-])C(CCC(=O)[O-])C3C.[Cu+2].[Na+].[Na+].[Na+] (stereo not drawn) | – | – | Wistar rat, female | oral, 250 mg/kg daily, 28 days | – | serum AST | 108 ± 17.6 U/L |
| CN1Cc2cc(Cl)ccc2-n2c(nnc2C2CCN(c3cccc([18F])n3)CC2)C1 | – | PET two-tissue compartment model | rhesus monkey, occipital cortex | intravenous, dose not given, 70 min scan, baseline scan | – | total volume of distribution | 0.93 ± 0.35 mL/cm3 |
| CC(C)=CCC/C(C)=C/CCn1cc(CC(P(=O)(O)O)P(=O)(O)O)nn1 | – | – | CD-1 mouse, plasma | intravenous, 0.5 mg/kg, single dose | – | half-life | 77.1 h |
| N#[11C]c1ccc(-c2csc(NN=C3CCCC3)n2)cc1 | – | – | C57BL/6 mice, male, spleen | intravenous, 3 MBq, 60 min | – | radioactivity uptake | 1.67 ± 0.65 %ID/g |
| CN[C@H](CC(C)C)C(=O)N[C@H]1C(=O)N[C@@H](CC(N)=O)C(=O)N[C@H]2C(=O)N[C@H]3C(=O)N[C@H](C(=O)N[C@H](C(=O)O)c4cc(O)cc(O)c4-c4cc3ccc4O)[C@H](O)c3ccc(c(Cl)c3)Oc3cc2cc(c3O[C@@H]2O[C@H](CO)[C@@H](O)[C@H](O)[C@H]2O[C@H]2C[C@](C)(NCc3ccc(-c4ccc(Cl)cc4)cc3)[C@H](O)[C@H](C)O2)Oc2ccc(cc2Cl)[C@H]1O | – | – | mouse, plasma | intravenous, 10 mg/kg | – | Vd | 1.28 L/kg |
| Cc1ccc(OCCN(C)C)cc1C(=O)N[C@H](C)c1cc(-c2cccs2)nc2ccccc12 | Vero E6 | – | – | 250 µM | – | viability | 10.6% and 10.2% |
| O=C1NC2(CC2)COc2ncc(F)cc2[C@H]2COCCN2c2ccn3ncc1c3n2 | – | – | Sprague-Dawley rat, male, blood | oral, 5 mg/kg/day, 4 weeks, end of treatment, subacute toxicity | – | mean corpuscular haemoglobin | 20 ± 1.2 pg |
| CC(C)C[C@H](NC(=O)[C@H](Cc1ccc(O)cc1)NC(=O)[C@H](Cc1c[nH]cn1)NC(=O)[C@H](CC(N)=O)NC(=O)[C@H](CC(C)C)NC(=O)[C@H](C)NC(=O)[C@H](CC(C)C)NC(=O)CNC(=O)CNC(=O)[C@@H](NC(=O)[C@@H](NC(=O)[C@H](CCCCN)NC(=O)CNC(=O)[C@@H](NC(=O)[C@H](CCCCN)NC(=O)[C@H](CCCCN)NC(=O)[C@H](C)NC(=O)[C@H](CCCCN)NC(=O)[C@H](CCCNC(=N)N)NC(=O)[C@H](Cc1ccccc1)NC(=O)[C@H](Cc1c[nH]c2ccccc12)NC(=O)[C@H](CC(=O)O)NC(=O)[C@H](CCCCN)NC(=O)[C@H](Cc1c[nH]c2ccccc12)NC(=O)CN)C(C)C)[C@@H](C)O)C(C)C)C(N)=O | – | – | zebrafish embryos 28 hpf, E3 medium | 1 h | – | acute toxic concentration | 5 µM |
| NC1CCN(C(=O)Oc2ccc(C3CCCC4(C3)OOC3(O4)C4CC5CC(C4)CC3C5)cc2)CC1 (racemic) | – | – | male mouse, plasma | intravenous, 10 mg/kg | – | Vd | 22.7 L/kg |
| CCn1ccc(-c2cc([C@@H](C)NC(=O)c3cc(OC[C@@H]4CCCN4C)ccc3C)c3ccccc3n2)n1 | Vero E6 | – | – | 500 µM | – | viability | 2.39% and 2.15% |
| CCN(CCCCOc1ccc(CCC(=O)N2CCC(Cc3ccccc3)CC2)cc1OC)Cc1ccccc1 | – | – | Sprague-Dawley rats, both sexes, faeces | oral gavage, 25 mg/kg, 6 to 12 h | reference: dose | excretion rate | 0.143 ± 0.115% |
| CC(=O)NCCCC[C@@H]1NC(=O)[C@H](Cc2c[nH]c3c(C)cccc23)NC(=O)[C@H]([C@@H](C)O)NC(=O)[C@H](CC(N)=O)NC(=O)[C@@H](NC(C)=O)C(C)(C)SSC(C)(C)[C@@H](C(=O)N[C@@H](Cc2ccc(OCCN)cc2)C(=O)N[C@@H](Cc2ccc3ccccc3c2)C(=O)NC2(C(=O)N[C@@H](CCC(=O)O)C(=O)N[C@@H](CC(N)=O)C(=O)N[C@@H](Cc3cccnc3)C(=O)N(C)CC(N)=O)CCOCC2)NC1=O | – | equilibrium dialysis | cynomolgus monkey, plasma | 0.1 µM | – | plasma protein binding | 43.7 ± 1.1% |
| CSCC[C@H](N)C(=O)N[C@@H](C)C(=O)N[C@@H](Cc1c[nH]c2ccccc12)C(=O)N[C@@H](Cc1c[nH]cn1)C(=O)N[C@@H](CC(=O)O)C(=O)N[C@@H](CC(=O)O)C(=O)N[C@@H](CCC(=O)O)C(=O)N[C@@H](CCC(=O)O)C(=O)N[C@@H](Cc1ccccc1)C(=O)N[C@@H](C)C(=O)N[C@@H](CCCNC(=N)N)C(=O)N[C@@H](CCCNC(=N)N)C(=O)N[C@@H](CCCNC(=N)N)C(=O)N[C@@H](CCCNC(=N)N)C(=O)NCCCCCC(=O)NCCCCC(NC(=O)CCCCCNC(=O)[C@H](CCCNC(=N)N)NC(=O)[C@H](CCCNC(=N)N)NC(=O)[C@H](CCCNC(=N)N)NC(=O)[C@H](CCCNC(=N)N)NC(=O)[C@H](C)NC(=O)[C@H](Cc1ccccc1)NC(=O)[C@H](CCC(=O)O)NC(=O)[C@H](CCC(=O)O)NC(=O)[C@H](CC(=O)O)NC(=O)[C@H](CC(=O)O)NC(=O)[C@H](Cc1c[nH]cn1)NC(=O)[C@H](Cc1c[nH]c2ccccc12)NC(=O)[C@H](C)NC(=O)[C@@H](N)CCSC)C(=O)NCCCCC(NC(=O)C(CCCCNC(=O)CCCCCNC(=O)[C@H](CCCNC(=N)N)NC(=O)[C@H](CCCNC(=N)N)NC(=O)[C@H](CCCNC(=N)N)NC(=O)[C@H](CCCNC(=N)N)NC(=O)[C@H](C)NC(=O)[C@H](Cc1ccccc1)NC(=O)[C@H](CCC(=O)O)NC(=O)[C@H](CCC(=O)O)NC(=O)[C@H](CC(=O)O)NC(=O)[C@H](CC(=O)O)NC(=O)[C@H](Cc1c[nH]cn1)NC(=O)[C@H](Cc1c[nH]c2ccccc12)NC(=O)[C@H](C)NC(=O)[C@@H](N)CCSC)NC(=O)CCCCCNC(=O)[C@H](CCCNC(=N)N)NC(=O)[C@H](CCCNC(=N)N)NC(=O)[C@H](CCCNC(=N)N)NC(=O)[C@H](CCCNC(=N)N)NC(=O)[C@H](C)NC(=O)[C@H](Cc1ccccc1)NC(=O)[C@H](CCC(=O)O)NC(=O)[C@H](CCC(=O)O)NC(=O)[C@H](CC(=O)O)NC(=O)[C@H](CC(=O)O)NC(=O)[C@H](Cc1c[nH]cn1)NC(=O)[C@H](Cc1c[nH]c2ccccc12)NC(=O)[C@H](C)NC(=O)[C@@H](N)CCSC)C(N)=O (stereo partly drawn) | – | – | C57BL/6 mouse female, ovary | dose not given, 3 h | reference: total | tissue distribution | 0.17% and 0.24% and 0.33% |

A few entries again:
| Compound | tested on | test | system | conditions | scale | endpoint | result |
| --- | --- | --- | --- | --- | --- | --- | --- |
| CN[C@H](CC(C)C)C(=O)N[C@H]1C(=O)N[C@@H](CC(N)=O)C(=O)N[C@H]2C(=O)N[C@H]3C(=O)N[C@H](C(=O)N[C@H](C(=O)O)c4cc(O)cc(O)c4-c4cc3ccc4O)[C@H](O)c3ccc(c(Cl)c3)Oc3cc2cc(c3O[C@@H]2O[C@H](CO)[C@@H](O)[C@H](O)[C@H]2O[C@H]2C[C@](C)(NCc3ccc(-c4ccc(Cl)cc4)cc3)[C@H](O)[C@H](C)O2)Oc2ccc(cc2Cl)[C@H]1O | – | – | mouse, plasma | intravenous, 10 mg/kg | – | Vd | 1.28 L/kg |
